Measured values collected from several papers.
A part holds a random share of what one study measured.
Sequence of UniProt Q5XXA6 (whole entry, unmodified, looked up): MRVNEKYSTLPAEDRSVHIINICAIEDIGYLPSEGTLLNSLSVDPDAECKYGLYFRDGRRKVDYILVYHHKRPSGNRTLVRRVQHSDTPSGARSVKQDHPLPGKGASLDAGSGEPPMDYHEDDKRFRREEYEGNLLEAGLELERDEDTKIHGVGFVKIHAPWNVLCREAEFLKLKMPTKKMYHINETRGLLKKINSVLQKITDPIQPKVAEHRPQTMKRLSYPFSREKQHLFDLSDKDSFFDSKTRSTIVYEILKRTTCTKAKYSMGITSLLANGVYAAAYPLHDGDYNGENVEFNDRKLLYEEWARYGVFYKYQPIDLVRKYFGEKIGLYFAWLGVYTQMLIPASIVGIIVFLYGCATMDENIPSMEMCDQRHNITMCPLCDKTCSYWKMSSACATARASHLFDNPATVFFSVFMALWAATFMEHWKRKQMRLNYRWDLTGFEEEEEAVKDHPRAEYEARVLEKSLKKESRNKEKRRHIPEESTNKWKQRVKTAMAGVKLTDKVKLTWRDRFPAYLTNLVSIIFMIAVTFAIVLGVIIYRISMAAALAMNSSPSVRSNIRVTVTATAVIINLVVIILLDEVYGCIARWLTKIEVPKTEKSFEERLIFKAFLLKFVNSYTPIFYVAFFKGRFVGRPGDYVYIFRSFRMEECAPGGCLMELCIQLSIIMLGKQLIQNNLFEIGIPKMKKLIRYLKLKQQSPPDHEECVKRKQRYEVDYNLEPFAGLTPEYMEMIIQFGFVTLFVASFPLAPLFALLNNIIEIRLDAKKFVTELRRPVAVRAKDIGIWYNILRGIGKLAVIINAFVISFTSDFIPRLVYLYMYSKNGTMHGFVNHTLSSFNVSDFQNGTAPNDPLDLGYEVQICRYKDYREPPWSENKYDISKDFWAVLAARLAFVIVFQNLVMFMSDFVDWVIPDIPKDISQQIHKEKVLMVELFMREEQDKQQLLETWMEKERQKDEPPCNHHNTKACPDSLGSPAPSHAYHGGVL
Sequence of UniProt O95747 (whole entry, looked up): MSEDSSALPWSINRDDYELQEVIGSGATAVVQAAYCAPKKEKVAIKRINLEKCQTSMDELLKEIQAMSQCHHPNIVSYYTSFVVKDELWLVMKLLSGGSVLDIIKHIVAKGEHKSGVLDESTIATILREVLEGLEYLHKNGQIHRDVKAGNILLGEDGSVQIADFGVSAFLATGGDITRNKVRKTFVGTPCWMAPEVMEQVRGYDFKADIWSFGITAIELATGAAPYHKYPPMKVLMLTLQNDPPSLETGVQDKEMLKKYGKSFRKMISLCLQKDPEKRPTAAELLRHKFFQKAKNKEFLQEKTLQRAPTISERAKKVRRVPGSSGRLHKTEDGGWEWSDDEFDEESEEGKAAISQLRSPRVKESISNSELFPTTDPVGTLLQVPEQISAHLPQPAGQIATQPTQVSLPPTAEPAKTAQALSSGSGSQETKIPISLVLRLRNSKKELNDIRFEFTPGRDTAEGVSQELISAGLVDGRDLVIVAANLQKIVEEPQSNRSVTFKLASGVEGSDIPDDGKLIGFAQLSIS
Sequence of UniProt Q6ZWH5 (whole entry, looked up): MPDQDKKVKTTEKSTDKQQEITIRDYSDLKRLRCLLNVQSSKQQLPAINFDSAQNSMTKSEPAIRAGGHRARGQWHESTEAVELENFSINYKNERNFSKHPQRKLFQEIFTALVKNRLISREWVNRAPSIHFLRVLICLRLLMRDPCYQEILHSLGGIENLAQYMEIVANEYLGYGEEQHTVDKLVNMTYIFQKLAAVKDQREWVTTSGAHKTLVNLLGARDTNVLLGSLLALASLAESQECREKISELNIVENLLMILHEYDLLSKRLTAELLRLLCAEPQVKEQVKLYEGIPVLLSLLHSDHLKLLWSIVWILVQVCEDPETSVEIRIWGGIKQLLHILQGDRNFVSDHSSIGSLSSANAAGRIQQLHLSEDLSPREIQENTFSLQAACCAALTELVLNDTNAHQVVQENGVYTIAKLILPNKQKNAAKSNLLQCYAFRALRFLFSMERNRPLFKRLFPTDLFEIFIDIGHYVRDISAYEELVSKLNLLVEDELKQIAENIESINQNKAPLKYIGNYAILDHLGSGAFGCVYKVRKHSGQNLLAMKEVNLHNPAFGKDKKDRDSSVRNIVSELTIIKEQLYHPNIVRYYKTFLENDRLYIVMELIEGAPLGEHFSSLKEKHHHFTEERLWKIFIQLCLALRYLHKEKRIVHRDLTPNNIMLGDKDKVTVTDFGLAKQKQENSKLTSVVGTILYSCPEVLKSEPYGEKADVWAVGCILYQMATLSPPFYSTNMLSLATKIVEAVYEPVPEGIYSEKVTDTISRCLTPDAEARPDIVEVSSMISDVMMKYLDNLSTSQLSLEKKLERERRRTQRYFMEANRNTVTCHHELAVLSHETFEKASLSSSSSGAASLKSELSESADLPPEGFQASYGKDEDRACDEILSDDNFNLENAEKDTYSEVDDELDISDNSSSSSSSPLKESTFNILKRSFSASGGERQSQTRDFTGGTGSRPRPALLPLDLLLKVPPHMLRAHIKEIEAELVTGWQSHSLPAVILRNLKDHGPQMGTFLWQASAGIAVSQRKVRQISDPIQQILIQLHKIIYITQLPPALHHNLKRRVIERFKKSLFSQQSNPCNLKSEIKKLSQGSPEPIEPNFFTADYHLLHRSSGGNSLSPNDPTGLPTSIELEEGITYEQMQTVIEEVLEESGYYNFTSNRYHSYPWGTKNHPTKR
Sequence of UniProt Q08881 (whole entry, looked up): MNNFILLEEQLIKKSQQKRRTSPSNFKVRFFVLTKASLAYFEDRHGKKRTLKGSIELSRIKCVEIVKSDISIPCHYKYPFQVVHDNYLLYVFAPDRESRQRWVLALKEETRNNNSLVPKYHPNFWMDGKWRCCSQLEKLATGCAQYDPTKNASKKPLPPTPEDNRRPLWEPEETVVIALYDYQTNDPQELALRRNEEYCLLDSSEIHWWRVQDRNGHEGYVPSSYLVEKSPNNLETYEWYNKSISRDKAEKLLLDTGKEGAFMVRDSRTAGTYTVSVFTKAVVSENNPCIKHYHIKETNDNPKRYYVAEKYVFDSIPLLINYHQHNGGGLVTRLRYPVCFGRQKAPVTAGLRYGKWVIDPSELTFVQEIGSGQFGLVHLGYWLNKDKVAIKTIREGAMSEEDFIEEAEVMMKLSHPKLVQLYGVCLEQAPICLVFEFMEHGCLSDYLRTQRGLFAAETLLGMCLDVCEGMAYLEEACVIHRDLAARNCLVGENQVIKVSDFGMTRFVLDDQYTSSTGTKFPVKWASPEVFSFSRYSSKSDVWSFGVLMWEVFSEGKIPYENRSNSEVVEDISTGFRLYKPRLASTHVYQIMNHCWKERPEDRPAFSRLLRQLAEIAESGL
Sequence of UniProt Q8TBX8 (whole entry, looked up): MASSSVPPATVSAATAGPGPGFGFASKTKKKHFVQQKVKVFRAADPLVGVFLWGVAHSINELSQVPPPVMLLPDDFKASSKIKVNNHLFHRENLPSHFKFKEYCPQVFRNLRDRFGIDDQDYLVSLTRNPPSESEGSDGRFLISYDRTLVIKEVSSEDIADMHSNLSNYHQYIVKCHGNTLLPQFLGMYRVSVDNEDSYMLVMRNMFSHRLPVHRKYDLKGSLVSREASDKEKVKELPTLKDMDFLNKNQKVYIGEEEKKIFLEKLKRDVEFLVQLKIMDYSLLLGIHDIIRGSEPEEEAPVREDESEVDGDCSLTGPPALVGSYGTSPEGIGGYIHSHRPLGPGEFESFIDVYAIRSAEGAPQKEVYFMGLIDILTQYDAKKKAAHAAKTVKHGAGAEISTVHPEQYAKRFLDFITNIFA
Sequence of UniProt Q13705 (whole entry, looked up): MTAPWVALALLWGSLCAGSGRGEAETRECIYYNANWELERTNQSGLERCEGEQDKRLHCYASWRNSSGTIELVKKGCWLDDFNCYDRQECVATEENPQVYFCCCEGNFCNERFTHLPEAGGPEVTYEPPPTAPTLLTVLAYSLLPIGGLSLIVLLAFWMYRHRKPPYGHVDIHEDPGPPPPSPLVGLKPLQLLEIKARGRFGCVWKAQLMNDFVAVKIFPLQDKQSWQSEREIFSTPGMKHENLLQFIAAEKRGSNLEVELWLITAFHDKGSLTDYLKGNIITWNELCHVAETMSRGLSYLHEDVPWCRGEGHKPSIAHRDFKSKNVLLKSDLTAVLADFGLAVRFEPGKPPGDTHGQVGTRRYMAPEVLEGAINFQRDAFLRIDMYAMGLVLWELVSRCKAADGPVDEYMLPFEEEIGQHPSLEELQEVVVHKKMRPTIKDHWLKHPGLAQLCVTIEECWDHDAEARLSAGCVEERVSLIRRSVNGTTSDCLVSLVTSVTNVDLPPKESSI
Sequence of UniProt Q8TF76 (whole entry, looked up): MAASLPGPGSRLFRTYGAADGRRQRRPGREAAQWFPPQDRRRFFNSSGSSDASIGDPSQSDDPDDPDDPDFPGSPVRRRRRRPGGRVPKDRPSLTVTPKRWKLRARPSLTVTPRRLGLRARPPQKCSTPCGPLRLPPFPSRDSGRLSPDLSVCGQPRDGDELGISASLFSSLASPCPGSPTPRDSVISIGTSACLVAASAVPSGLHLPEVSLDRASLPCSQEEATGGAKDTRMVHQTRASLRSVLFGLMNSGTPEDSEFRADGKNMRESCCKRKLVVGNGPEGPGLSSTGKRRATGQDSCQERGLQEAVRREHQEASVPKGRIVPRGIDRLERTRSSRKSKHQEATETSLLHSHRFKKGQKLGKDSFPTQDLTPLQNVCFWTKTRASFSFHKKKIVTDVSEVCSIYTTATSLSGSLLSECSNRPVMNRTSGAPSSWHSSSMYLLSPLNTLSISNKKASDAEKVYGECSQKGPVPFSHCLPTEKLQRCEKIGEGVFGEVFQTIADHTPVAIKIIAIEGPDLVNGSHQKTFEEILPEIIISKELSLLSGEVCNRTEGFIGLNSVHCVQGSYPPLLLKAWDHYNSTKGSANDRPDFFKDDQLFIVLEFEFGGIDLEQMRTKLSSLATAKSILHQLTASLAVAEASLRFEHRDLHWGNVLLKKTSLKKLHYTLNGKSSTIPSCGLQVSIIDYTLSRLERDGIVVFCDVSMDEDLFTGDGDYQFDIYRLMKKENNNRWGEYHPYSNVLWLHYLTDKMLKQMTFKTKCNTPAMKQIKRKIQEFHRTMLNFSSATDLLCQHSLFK

Series 1
Organism: Sarcocystis neurona
Observed: parasite growth
Concentration: 10 µM
Notes: second screen
Relative to: untreated
Compound	log2 fold change
O=C1c2c(O)ccc(O)c2C(=O)c2c(NCCNCCO)ccc(NCCNCCO)c21	-0.86
CCCc1nc(C)c2c(=O)[nH]c(-c3cc(S(=O)(=O)N4CCN(CC)CC4)ccc3OCC)nn12.O=C(O)CC(O)(CC(=O)O)C(=O)O	0.63
Cc1onc(-c2ccccc2)c1C(=O)N[C@@H]1C(=O)N2[C@@H]1SC(C)(C)[C@@H]2C(=O)O	0.28
CC(C)(C)NCC(O)c1ccc(O)c(CO)c1.CC(C)(C)NCC(O)c1ccc(O)c(CO)c1.O=S(=O)(O)O (stereo not shown)	0.4
COc1cc(N)c(Cl)cc1C(=O)NC1CCN(CCCOc2ccc(F)cc2)CC1OC.O (stereo not shown)	0.29
OC[C@H]1O[C@@H](n2cnc3c(NC4CCCC4)nc(Cl)nc32)[C@H](O)[C@@H]1O	0.47

Series 2
Compound: C=CCc1ccc(O)c(-c2ccc(O)c(CC=C)c2)c1
Observed: chloride current
Technique: whole-cell voltage clamp
target	assay	setting	IC50 [µM]
Anoctamin-1 (ANO1, Homo sapiens, UniProt Q5XXA6, del476-501/F807A)		membrane voltage -20 mV	26.7
Anoctamin-1 (ANO1, Homo sapiens, UniProt Q5XXA6, del476-501)	inhibitor	wild type, together with: 300 nM Ca2+	6.37
Anoctamin-1 (ANO1, Homo sapiens, UniProt Q5XXA6, D383A/del476-501)		membrane voltage -60 mV	14.3
Anoctamin-1 (ANO1, Homo sapiens, UniProt Q5XXA6, del476-501/F627A)	inhibitor	mutant F601A at 100 mV, together with: 300 nM Ca2+	7.55
Anoctamin-1 (ANO1, Homo sapiens, UniProt Q5XXA6, del476-501/F646A)		membrane voltage -60 mV	5.2
Anoctamin-1 (ANO1, Homo sapiens, UniProt Q5XXA6, del476-501/R631I)	inhibitor	R605I mutant at -40 mV	22.8

Series 3
Compound: O=C(NCc1ncc(C(F)(F)F)cc1Cl)c1ccc2c(c1)C1(CCS(=O)(=O)CC1)[C@@H](C1CC1)N2S(=O)(=O)c1ccc(F)cc1
Observed: cell-free assay
Technique: competition with immobilised ligand
Concentration: 1 µM
target	remaining binding [%]
PAK5 (Homo sapiens, UniProt Q9P286)	74
PIP4K2C (Homo sapiens, UniProt Q8TBX8)	100
HASPIN (Homo sapiens, UniProt Q8TF76)	77
ITK (Homo sapiens, UniProt Q08881)	100
BMP2K (Homo sapiens, UniProt Q9NSY1)	76
STK38L (Homo sapiens, UniProt Q9Y2H1)	94
FLT3 (Homo sapiens, UniProt P36888, K663Q)	100
STK10 (Homo sapiens, UniProt O94804)	94
Tyrosine-protein kinase ABL1, non-phosphorylated (ABL1, Homo sapiens, UniProt P00519, H396P)	100
NEK10 (Homo sapiens, UniProt Q6ZWH5)	83
EPHB2 (Homo sapiens, UniProt P29323)	100
RIOK2 (Homo sapiens, UniProt Q9BVS4)	77
OXSR1 (Homo sapiens, UniProt O95747)	71
ACVR2B (Homo sapiens, UniProt Q13705)	100
FLT3 (Homo sapiens, UniProt P36888, D835V/ITD)	67

Series 4
Cell line: mouse MPNST tumor cells
Technique: high-content immunofluorescence imaging
Item: nuclear SOX9
Concentration: 10 µM
Time: 12 h
Notes: mean of 2 replicates
Relative to: DMSO control
Direction: higher = more nuclear SOX9
SMILES	nuclear SOX9 intensity
OCC(CO)N[C@H]1C[C@](O)(CO)[C@@H](O)[C@H](O)[C@H]1O	117 % of DMSO
CCCCc1ccc2[nH]c(NC(=O)OC)nc2c1	210 % of DMSO
CCCCNc1nc(N)c2[nH]c(=O)n(Cc3ccc(OCCN(C)C)nc3)c2n1	102 % of DMSO
CN(CC[C@@H](Oc1ccc(C(F)(F)F)cc1)c1ccccc1)CC(=O)O	89.2 % of DMSO
O=C(Nc1ccccc1)c1ccc(NC(=O)c2ccc(Cl)cc2Cl)cc1	89.4 % of DMSO
C[C@H](CCC(=O)O)[C@H]1CC[C@H]2[C@@H]3CC[C@@H]4C[C@H](O)CC[C@]4(C)[C@H]3CC[C@]12C	103 % of DMSO

Further values, each from its own experiment
SMILES	test system	setting	quantity	result
COc1ccc(-c2c(Nc3ccccn3)[nH]c3c(C4=CCCCC4)c(-c4ccccc4)nn3c2=O)cc1	human patients, plasma	oral, 100 mg once daily, day 15, cycle 1, tau 24 h	AUC(0-tau) geometric mean	66.3 µg·h/mL

Some of these lines once more (series 2):
target	assay	setting	IC50 [µM]
Anoctamin-1 (ANO1, Homo sapiens, UniProt Q5XXA6, del476-501/F646A)		membrane voltage -60 mV	5.2
Anoctamin-1 (ANO1, Homo sapiens, UniProt Q5XXA6, del476-501/F627A)	inhibitor	mutant F601A at 100 mV, together with: 300 nM Ca2+	7.55
Anoctamin-1 (ANO1, Homo sapiens, UniProt Q5XXA6, D383A/del476-501)		membrane voltage -60 mV	14.3
